# Results of several laboratories.
# Each line is one published result; not all experiments were run side by side. “And” joins repeats or separate records; there may be more than shown. Numbers after ± are the reported error.
# EPHA2: Ephrin type-A receptor 2 (EPHA2, Homo sapiens, UniProt P29317)
# UniProt P29317, sequence (whole entry, looked up): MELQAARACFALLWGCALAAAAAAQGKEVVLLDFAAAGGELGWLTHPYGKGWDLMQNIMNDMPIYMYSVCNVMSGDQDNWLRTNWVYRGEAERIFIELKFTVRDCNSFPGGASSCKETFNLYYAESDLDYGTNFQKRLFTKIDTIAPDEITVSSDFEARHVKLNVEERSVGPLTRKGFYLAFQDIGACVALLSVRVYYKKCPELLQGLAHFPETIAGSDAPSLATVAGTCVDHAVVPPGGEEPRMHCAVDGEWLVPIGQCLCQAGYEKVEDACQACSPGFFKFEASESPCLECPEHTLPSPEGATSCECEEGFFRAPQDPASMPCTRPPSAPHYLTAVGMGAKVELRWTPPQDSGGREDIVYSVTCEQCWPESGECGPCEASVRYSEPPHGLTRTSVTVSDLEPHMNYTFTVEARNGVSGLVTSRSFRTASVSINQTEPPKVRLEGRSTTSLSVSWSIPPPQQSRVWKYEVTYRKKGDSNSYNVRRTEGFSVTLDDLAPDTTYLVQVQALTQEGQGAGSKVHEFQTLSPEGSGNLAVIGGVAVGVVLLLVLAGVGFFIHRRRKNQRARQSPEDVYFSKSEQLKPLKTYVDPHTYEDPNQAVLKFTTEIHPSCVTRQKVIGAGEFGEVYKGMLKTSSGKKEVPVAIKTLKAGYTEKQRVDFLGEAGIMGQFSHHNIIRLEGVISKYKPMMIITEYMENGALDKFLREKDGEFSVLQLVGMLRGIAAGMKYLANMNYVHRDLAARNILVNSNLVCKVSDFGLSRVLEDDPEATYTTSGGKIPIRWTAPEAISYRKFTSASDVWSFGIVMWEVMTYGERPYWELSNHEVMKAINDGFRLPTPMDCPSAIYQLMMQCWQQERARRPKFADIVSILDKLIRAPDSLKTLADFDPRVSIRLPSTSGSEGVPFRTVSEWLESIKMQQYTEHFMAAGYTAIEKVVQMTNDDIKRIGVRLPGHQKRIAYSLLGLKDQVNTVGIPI
# GLAA: Glucoamylase (GLAA, Aspergillus niger, UniProt P69328)
# UniProt P69328, sequence (whole entry, looked up): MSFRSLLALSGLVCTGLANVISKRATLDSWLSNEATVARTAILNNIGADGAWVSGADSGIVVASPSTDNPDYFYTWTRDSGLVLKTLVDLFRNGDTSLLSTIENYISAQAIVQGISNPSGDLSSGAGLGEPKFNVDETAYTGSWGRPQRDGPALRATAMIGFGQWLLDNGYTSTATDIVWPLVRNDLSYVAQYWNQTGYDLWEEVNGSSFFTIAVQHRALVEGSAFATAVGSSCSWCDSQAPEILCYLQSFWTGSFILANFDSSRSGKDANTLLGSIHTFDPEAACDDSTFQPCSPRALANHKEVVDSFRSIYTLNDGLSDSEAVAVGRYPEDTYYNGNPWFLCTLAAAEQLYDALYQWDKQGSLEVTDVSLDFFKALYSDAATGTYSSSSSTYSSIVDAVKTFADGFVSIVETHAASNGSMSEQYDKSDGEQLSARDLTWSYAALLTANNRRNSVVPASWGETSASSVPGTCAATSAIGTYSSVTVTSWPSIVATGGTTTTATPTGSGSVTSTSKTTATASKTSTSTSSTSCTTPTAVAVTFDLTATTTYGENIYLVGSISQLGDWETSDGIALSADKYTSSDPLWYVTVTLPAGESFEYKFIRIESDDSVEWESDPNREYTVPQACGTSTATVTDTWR
# Astl: Astacin-like metalloendopeptidase (Astl, Mus musculus, UniProt Q6HA09)
# UniProt Q6HA09, sequence (whole entry, looked up): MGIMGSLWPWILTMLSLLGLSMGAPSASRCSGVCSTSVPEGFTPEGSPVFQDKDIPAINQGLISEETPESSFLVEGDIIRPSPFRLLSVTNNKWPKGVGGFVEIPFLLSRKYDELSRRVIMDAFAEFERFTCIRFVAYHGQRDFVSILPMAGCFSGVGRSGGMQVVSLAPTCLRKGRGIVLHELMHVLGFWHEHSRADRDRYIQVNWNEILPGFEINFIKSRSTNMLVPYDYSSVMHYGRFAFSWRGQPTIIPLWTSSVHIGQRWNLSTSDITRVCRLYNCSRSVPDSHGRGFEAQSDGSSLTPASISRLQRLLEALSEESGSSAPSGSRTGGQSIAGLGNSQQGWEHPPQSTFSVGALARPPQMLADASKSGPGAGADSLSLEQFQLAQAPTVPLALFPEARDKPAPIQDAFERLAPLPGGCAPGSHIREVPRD
# CAPN1: Calpain-1 catalytic subunit (CAPN1, Homo sapiens, UniProt P07384)
# UniProt P07384, sequence (whole entry, looked up): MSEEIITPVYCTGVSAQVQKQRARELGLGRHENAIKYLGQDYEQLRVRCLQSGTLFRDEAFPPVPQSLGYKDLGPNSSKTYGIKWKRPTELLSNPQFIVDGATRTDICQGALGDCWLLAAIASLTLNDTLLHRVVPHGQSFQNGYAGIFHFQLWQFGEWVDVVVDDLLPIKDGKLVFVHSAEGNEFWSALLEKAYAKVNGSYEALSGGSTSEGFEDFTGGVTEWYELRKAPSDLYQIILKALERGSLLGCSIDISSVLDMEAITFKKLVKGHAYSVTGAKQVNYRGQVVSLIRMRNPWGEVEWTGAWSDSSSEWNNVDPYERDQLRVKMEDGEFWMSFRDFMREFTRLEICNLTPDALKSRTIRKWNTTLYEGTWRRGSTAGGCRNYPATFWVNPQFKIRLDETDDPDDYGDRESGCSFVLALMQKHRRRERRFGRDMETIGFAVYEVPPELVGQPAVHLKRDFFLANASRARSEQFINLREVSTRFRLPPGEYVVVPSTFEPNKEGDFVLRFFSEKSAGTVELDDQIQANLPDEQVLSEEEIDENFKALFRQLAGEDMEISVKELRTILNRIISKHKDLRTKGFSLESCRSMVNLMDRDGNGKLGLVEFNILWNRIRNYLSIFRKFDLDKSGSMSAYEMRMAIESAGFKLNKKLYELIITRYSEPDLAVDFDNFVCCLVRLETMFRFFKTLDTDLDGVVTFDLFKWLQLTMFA
# XIAP BIR3: E3 ubiquitin-protein ligase XIAP, BIR3 (XIAP, Homo sapiens, UniProt P98170)
# UniProt P98170, sequence (whole entry, looked up): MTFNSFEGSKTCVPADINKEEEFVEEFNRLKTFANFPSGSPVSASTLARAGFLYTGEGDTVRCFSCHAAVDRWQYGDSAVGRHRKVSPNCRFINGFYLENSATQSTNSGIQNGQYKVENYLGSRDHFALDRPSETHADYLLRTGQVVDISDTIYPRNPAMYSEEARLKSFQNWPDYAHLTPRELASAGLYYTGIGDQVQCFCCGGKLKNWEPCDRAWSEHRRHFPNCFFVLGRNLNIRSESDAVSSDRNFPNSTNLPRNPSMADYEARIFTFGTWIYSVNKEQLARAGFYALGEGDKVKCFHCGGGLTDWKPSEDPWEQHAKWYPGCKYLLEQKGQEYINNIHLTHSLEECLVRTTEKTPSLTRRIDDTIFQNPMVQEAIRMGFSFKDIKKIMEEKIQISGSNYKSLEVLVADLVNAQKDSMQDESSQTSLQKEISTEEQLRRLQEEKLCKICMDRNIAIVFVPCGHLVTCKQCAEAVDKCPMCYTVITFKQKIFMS
# CFTR: Cystic fibrosis transmembrane conductance regulator (CFTR, Homo sapiens, UniProt P13569)
# CNR1: Cannabinoid receptor 1 (CNR1, Homo sapiens, UniProt P21554)
# UniProt P21554, sequence (whole entry, looked up): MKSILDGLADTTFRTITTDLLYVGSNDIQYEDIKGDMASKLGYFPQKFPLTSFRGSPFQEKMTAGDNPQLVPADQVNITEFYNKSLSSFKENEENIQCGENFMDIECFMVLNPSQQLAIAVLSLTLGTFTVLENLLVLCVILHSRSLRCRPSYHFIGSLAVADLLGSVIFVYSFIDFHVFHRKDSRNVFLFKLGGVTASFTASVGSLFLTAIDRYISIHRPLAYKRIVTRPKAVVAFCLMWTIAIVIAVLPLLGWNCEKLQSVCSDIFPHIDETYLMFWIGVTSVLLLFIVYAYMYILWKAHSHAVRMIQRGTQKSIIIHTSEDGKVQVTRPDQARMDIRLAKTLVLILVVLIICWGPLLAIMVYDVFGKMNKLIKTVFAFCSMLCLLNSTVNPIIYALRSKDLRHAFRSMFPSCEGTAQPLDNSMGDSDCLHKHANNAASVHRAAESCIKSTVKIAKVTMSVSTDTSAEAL
# bglA: bglA (Thermotoga maritima, UniProt Q08638)
# UniProt Q08638, sequence (whole entry, looked up): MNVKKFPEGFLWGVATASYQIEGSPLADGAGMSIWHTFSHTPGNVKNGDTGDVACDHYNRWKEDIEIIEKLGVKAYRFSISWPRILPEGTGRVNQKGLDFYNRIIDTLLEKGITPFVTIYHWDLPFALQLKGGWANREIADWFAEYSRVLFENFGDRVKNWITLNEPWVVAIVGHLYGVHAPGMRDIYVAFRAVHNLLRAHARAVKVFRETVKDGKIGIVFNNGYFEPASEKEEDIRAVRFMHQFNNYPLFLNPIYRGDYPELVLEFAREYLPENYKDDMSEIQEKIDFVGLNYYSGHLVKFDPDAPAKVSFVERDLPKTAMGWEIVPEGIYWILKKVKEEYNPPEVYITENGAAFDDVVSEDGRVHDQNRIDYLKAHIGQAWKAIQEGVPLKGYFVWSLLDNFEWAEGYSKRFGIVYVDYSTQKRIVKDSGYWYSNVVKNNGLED
# Na(+)/H(+) exchange regulatory cofactor NHE-RF2 PDZ domain 1: Na(+)/H(+) exchange regulatory cofactor NHE-RF2, PDZ domain 1 (Homo sapiens, UniProt Q15599)
# DRD2: D(2) dopamine receptor (DRD2, Homo sapiens, UniProt P14416)
# UniProt P14416, sequence (whole entry, looked up): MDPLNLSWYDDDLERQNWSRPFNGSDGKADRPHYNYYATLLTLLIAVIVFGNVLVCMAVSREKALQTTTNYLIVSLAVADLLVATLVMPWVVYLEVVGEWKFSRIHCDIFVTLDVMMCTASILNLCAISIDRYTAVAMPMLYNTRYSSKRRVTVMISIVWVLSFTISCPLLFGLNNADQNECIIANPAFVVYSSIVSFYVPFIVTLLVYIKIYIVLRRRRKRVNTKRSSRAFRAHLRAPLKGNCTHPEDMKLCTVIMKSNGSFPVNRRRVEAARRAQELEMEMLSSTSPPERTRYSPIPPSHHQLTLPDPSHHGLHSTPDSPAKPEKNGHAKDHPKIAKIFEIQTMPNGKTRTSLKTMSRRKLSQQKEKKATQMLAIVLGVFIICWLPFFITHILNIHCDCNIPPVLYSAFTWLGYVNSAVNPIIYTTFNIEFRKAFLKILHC
# UniProt P31153, sequence (whole entry, looked up): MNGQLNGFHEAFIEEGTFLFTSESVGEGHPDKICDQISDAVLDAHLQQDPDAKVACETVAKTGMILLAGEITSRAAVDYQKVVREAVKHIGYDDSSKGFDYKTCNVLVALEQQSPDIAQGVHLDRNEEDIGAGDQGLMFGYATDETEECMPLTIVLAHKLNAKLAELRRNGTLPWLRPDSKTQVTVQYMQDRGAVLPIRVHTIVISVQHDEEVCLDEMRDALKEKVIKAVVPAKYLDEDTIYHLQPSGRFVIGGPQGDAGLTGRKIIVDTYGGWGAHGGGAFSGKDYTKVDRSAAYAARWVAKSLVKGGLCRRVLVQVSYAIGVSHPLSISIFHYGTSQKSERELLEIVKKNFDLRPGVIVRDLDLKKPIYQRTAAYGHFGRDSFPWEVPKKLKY
Compound,target,assay,system,conditions,Ki
CNC(=O)C1CCN(c2ccccc2NC(=O)c2ccc(-c3c(C)ccc4[nH]ncc34)c(C)c2)CC1,EPHA2,"enzyme activity, inhibitor",,,0.0007 µM
CCC[C@@H]1[C@H](O)[C@@H](O)[C@H](O)[C@@H](CO)N1C(=S)NCc1ccc(C(F)(F)F)cc1,GLAA,"enzyme activity, competitive inhibitor",,"optimal pH, with: p-nitrophenyl glycopyranoside",> 2000 µM
CNC(=O)C1CCN(C(=O)CCC(=O)N(CC(C)(C)C)c2ccc(Cl)cc2C(O)c2ccccc2Cl)CC1 (stereo not shown),"Squalene synthase (Homo sapiens, UniProt P37268)","binding, fluorescence polarization competition",,unknown site tracer,0.3 µM
O=C(CN(Cc1ccc2c(c1)OCO2)Cc1ccc2c(c1)OCO2)NO,Astl,"enzyme activity, inhibitor, fluorogenic",,"pH 7.4, 37 °C, apparent Ki, Morrison equation, with: 25 µM substrate",2.56 ± 0.13 µM
CNC(=O)C1CCN(c2ccccc2NC(=O)c2ccc(-c3cc(O)ccc3C)cc2)CC1,EPHA2,"enzyme activity, inhibitor",,,0.0073 µM
CC[C@H](C)[C@H](NC(C)=O)C(=O)N1CCC[C@H]1C(=O)N1CCC[C@H]1C(=O)N[C@@H](CCCCN)C(=O)N[C@@H](Cc1ccc(O)cc1)C(=O)N[C@@H](CCCNC(=N)N)C(=O)N[C@@H](CCC(=O)O)C(=O)N[C@@H](CC(C)C)C(=O)N[C@@H](CC(C)C)C(=O)N[C@@H](C)C(N)=O,CAPN1,"enzyme activity, inhibitor, fluorescence",,pH 7.5,> 100 µM
C[C@@H]1Cc2cc(C(=O)C3=C(O)C(=O)N(CCc4ccccc4)[C@@H]3c3cccc(Br)c3)ccc2O1,"FABP5 (Homo sapiens, UniProt Q01469)","ligand displacement, fluorescence",,,3.13 µM
CCC(NC(=O)C(CC(C)C)NC(=O)CCc1ccccc1)C(=O)C(=O)NCc1cc(OC)cc(OC)c1 (stereo not shown),CAPN1,"enzyme activity, inhibitor, fluorescence",,,0.134 µM
Nc1ncnc2c1ncn2[C@@H]1O[C@H](COP(=O)(O)NP(=O)(O)OP(=O)(O)O)[C@@H](O)[C@H]1O,"MAT2A (Homo sapiens, UniProt P31153)","enzyme activity, inhibitor",,,0.9 µM
CN[C@@H](C)C(=O)N[C@H]1CN(C(=O)Cc2ccccc2)CC[C@H]2CC[C@@H](C(=O)NCc3ccc(OC)cc3)N2C1=O,XIAP BIR3,"ligand displacement, FP",,,16.3 µM
O=C(CCN(Cc1cccnc1)Cc1ccc(Cl)c(O)c1F)NO,Astl,"enzyme activity, inhibitor, fluorogenic",,"pH 7.4, 37 °C, apparent Ki, Morrison equation, with: 25 µM substrate",3.13 ± 0.01 µM
Cc1ccc(CC(=O)N/N=C/c2cc(Br)c(O)c(Br)c2O)cc1,CFTR,"chloride current, inhibitor, short-circuit current",FRT,basolateral membrane permeabilized,10 µM
Cc1ncsc1-c1ccc(CNC(=O)[C@@H]2C[C@@H](O)CN2C(=O)[C@@H](NC(=O)OC(C)(C)C)C(C)(C)C)cc1,"von Hippel-Lindau disease tumor suppressor, with elongin B/C (VHL, Homo sapiens, UniProt P40337)",,,,2.1 µM
CCc1c(C(=O)NCCc2ccc(N3CCCCC3)cc2)[nH]c2ccc(Cl)cc12,CNR1,"ligand displacement in cells, radioligand",,,0.4 µM
CC(Oc1cc(-c2ccccc2)nc2cnccc12)C(=O)N(C)c1ccccc1 (stereo not shown),"Tspo (Rattus norvegicus, UniProt P16257)","binding, radioligand displacement",rat brain homogenate,,0.0003 ± 0.0002 µM
CCCCCCCCNC(=S)N1[C@H](CCCCCCCC)[C@H](O)[C@@H](O)[C@H](O)[C@H]1CO,GLAA,"enzyme activity, inhibitor",,,455 µM
CNC(=O)C1CCN(c2cc(C)c(F)cc2NC(=O)c2ccc(-c3c(C)ccc4[nH]ncc34)c(C)c2)CC1,EPHA2,"enzyme activity, inhibitor",,,0.0073 µM and < 0.01 µM
CCC(NC(=O)C(CC(C)C)NC(=O)Nc1ccncc1)C(=O)C(=O)NCc1cc(OC)cc(OC)c1 (stereo not shown),CAPN1,"enzyme activity, inhibitor, fluorescence",,,0.221 µM
CCCCCCCC/N=C1/SC[C@@H]2[C@@H](O)[C@H](O)[C@@H](O)[C@@H](CCC)N12,bglA,competitive inhibitor,,with: p-nitrophenyl glucopyranoside,280 ± 25 µM
CC(=O)c1ccc(NC(=O)c2nc(-c3ccccc3)n(-c3ccc(C)cc3)n2)cc1,CNR1,cell-free assay,,,0.495 µM and 0.496 µM
CCCCCCCC[C@@H]1[C@H](O)[C@@H](O)[C@H](O)[C@H]2CS/C(=N/CCCC)N12,GLAA,"enzyme activity, inhibitor",,,842 µM
CNC(=O)C1CCN(c2cc(C)c(F)cc2NC(=O)c2ccc(-c3cc(O)ccc3C)c(C)c2)CC1,EPHA2,"cell-free assay, TR-FRET",,,0.004 µM
CC1(C)NC(N)=Nc2nc3ccccc3n21,"DHFR (Homo sapiens, UniProt P00374)",inhibitor,,,3.78 µM
CCC[C@@H]1[C@H](O)[C@@H](O)[C@H](O)[C@@H](CO)N1C(=S)NCc1ccc(OC)cc1,bglA,competitive inhibitor,,with: p-nitrophenyl glucopyranoside,> 2000 µM
CC[C@H](C)[C@H](NC(=O)[C@@H](NC(=O)[C@H](CO)NC(=O)[C@@H](NC(=O)[C@H](CCC(N)=O)NC(=O)[C@H](Cc1c[nH]c2ccccc12)NC(=O)[C@@H](N)CS)[C@@H](C)O)[C@@H](C)CC)C(=O)O,Na(+)/H(+) exchange regulatory cofactor NHE-RF2 PDZ domain 1,"binding to PDZ1 domain, inhibitor, fluorescence polarization",,,496 ± 151 µM
O=C(O)c1ccc2[nH]c(-c3ccc(OCC(O)COc4ccc(-c5nc6cc(C(=O)O)ccc6[nH]5)cc4)cc3)nc2c1,"Beta-lactamase (Escherichia coli, UniProt Q8VNN1)",inhibitor,,,3.5 ± 1.1 µM
O=C(CCN(Cc1ccc2c(c1)OCO2)Cc1ccc2c(c1)OCO2)NO,Astl,"enzyme activity, inhibitor, fluorogenic",,"pH 7.4, 37 °C, apparent Ki, Morrison equation, with: 25 µM substrate",1.15 ± 0.07 µM
O=C(N/N=C/c1cc(Br)c(O)c(Br)c1O)C(=O)Nc1ccc2ccccc2c1,CFTR,"chloride current, inhibitor, short-circuit current",FRT,basolateral membrane permeabilized,2.7 µM
C#CCOC(=O)[C@]1(C)C=C(C(=O)OC(C)(C)C)C(=O)CC1,"MAPK1 (Homo sapiens, UniProt P28482)","ligand displacement, FP",,,1 µM
CCCCCCCCN=C1SC[C@@H]2[C@@H](O)[C@H](O)[C@@H](O)[C@@H](CCCCCCCC)N12,bglA,competitive inhibitor,,with: p-nitrophenyl glucopyranoside,> 2000 µM
CN(CCNc1ncc(C#N)cc1Cl)Cc1ccc(F)cc1,DRD2,"ligand displacement, radioligand",,,8.61 µM
CCC(NC(=O)C(CC(C)C)NC(=O)CCc1ccc(C#N)cc1)C(=O)C(=O)NCc1cc(OC)cc(OC)c1 (stereo not shown),CAPN1,"enzyme activity, inhibitor, fluorescence",,,0.146 µM
CN[C@@H](C)C(=O)N[C@H]1CN(C(=O)Cc2ccccc2)CC[C@H]2CC[C@@H](C(=O)NCc3cccc(Cl)c3)N2C1=O,XIAP BIR3,"ligand displacement, FP",,,1.02 µM
CNc1ccccc1C(=O)O[C@H]1[C@@H](O)[C@H](n2cnc3c(N)ncnc32)O[C@@H]1COP(=O)(O)OP(=O)(O)O,"ADCY1 (Bos taurus, UniProt P19754)","adenylyl cyclase activity, inhibitor",Sf9 membranes,"with: 5 mM MnCl2, 100 µM forskolin",1.3 ± 0.2 µM
N=C(N)NCCCc1c[nH]cn1,"HRH1 (Homo sapiens, UniProt P35367)",cell-free assay,,,> 100 µM
CCOC(=O)c1nn(-c2ccccc2)cc1CN(C)[C@@H]1CCSC1,DRD2,"ligand displacement, radioligand",,,> 10 µM
CSCC[C@H](NC(=O)[C@@H](N)CS)C(=O)N[C@@H](CCC(N)=O)C(=O)N[C@H](C(=O)N[C@@H](CO)C(=O)N[C@@H](CCCCN)C(=O)N[C@@H](CC(C)C)C(=O)O)[C@@H](C)O,Na(+)/H(+) exchange regulatory cofactor NHE-RF2 PDZ domain 1,"binding to PDZ1 domain, inhibitor, fluorescence polarization",,,31.7 ± 8.9 µM
CCCC/N=C1/SC[C@@H]2[C@@H](O)[C@H](O)[C@@H](O)[C@@H](CCC)N12,bglA,competitive inhibitor,,with: p-nitrophenyl glucopyranoside,16 ± 1 µM
CC(C)c1ccc(C(=O)Nc2ccc(CN)cc2)c(O)c1,"TMPRSS2 (Homo sapiens, UniProt O15393)","enzyme activity, inhibitor, fluorescence",,,0.7 µM
CCC(NC(=O)C(CC(C)C)NC(=O)NCc1ccccc1)C(=O)C(=O)NCc1cc(F)cc(OC)c1 (stereo not shown),"Calpain-2 catalytic subunit (Homo sapiens, UniProt P17655)","enzyme activity, inhibitor, fluorescence",,,0.072 µM

# Repeated from above:
Compound,target,assay,system,conditions,Ki
CNC(=O)C1CCN(c2ccccc2NC(=O)c2ccc(-c3cc(O)ccc3C)cc2)CC1,EPHA2,"enzyme activity, inhibitor",,,0.0073 µM
CC[C@H](C)[C@H](NC(C)=O)C(=O)N1CCC[C@H]1C(=O)N1CCC[C@H]1C(=O)N[C@@H](CCCCN)C(=O)N[C@@H](Cc1ccc(O)cc1)C(=O)N[C@@H](CCCNC(=N)N)C(=O)N[C@@H](CCC(=O)O)C(=O)N[C@@H](CC(C)C)C(=O)N[C@@H](CC(C)C)C(=O)N[C@@H](C)C(N)=O,CAPN1,"enzyme activity, inhibitor, fluorescence",,pH 7.5,> 100 µM
C[C@@H]1Cc2cc(C(=O)C3=C(O)C(=O)N(CCc4ccccc4)[C@@H]3c3cccc(Br)c3)ccc2O1,"FABP5 (Homo sapiens, UniProt Q01469)","ligand displacement, fluorescence",,,3.13 µM
CCC(NC(=O)C(CC(C)C)NC(=O)CCc1ccccc1)C(=O)C(=O)NCc1cc(OC)cc(OC)c1 (stereo not shown),CAPN1,"enzyme activity, inhibitor, fluorescence",,,0.134 µM
Nc1ncnc2c1ncn2[C@@H]1O[C@H](COP(=O)(O)NP(=O)(O)OP(=O)(O)O)[C@@H](O)[C@H]1O,"MAT2A (Homo sapiens, UniProt P31153)","enzyme activity, inhibitor",,,0.9 µM
CN[C@@H](C)C(=O)N[C@H]1CN(C(=O)Cc2ccccc2)CC[C@H]2CC[C@@H](C(=O)NCc3ccc(OC)cc3)N2C1=O,XIAP BIR3,"ligand displacement, FP",,,16.3 µM
